Experimental data of several laboratories.
Numbered parts are unrelated; each lists some results of a single study. Changes are numbered by the printed parent chain.

Block 1
Target: Histone acetyltransferase KAT6A, winged helix 2, GST fusion (KAT6A, Homo sapiens, UniProt Q92794, residues 85-181)
Method: protein binding microarray
Molecule type: double-stranded DNA, one strand shown
Sample: in vitro
Concentration: not given
Notes: 8-mer, flanks averaged, mean of 2 arrays, mostly near background
Relative to: not given
Reading: higher = stronger binding
Residues (chain): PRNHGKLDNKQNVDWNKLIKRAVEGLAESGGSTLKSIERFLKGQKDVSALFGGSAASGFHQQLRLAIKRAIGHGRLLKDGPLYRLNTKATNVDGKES
| Oligonucleotide | E-score |
| --- | --- |
| CGCGTACA | -0.105 |
| GCCCTAAC | 0.00967 |
| AATCGTCC | -0.131 |
| ACAGCCAT | -0.0626 |
| GATCGTAC | -0.233 |
| GCATCTCC | -0.114 |
| CGAACGGC | 0.165 |
| GGTCGAGA | -0.0609 |
| GCCCCCAA | -0.105 |
| CCCACTAC | -0.021 |
| CCAGCTTA | 0.0382 |
| AGTTCAGG | -0.111 |
| ACCTGTAC | -0.184 |
| AGATCGCC | 0.0915 |
| AACAAACG | -0.127 |
| AGACTCAC | -0.0283 |
| AGTGTGAC | -0.146 |
| AAATCCTA | 0.0246 |
| AGCTTGAG | -0.0694 |
| AGTACTGA | -0.0156 |

Block 2
Target: CCNE2, cyclin fold, Cln2 fusion (human)
Method: yeast growth competition, sequencing
Sample: yeast
Notes: strong parent motif
Relative to: not given
Reading: higher = stronger binding
Parent: CDKN1B docking peptide (human); PSACRNLFGPVDH; partner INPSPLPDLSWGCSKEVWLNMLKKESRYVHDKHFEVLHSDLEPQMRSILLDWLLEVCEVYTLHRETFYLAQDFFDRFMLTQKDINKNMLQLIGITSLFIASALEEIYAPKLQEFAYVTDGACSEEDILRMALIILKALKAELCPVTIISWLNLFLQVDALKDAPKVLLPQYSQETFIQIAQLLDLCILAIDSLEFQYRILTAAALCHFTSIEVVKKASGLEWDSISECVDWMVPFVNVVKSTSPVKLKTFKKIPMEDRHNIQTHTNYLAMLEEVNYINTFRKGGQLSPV
| Change | normalised enrichment score |
| --- | --- |
| PSAGRNLFGPVDH [C4G] | 0.0406 |
| HSACRNLFGPVDH [P1H] | 1.88 |
| PSACRTLFGPVDH [N6T] | 0.687 |
| TSACRNLFGPVDH [P1T] | 2.17 |
| PSACRNLDGPVDH [F8D] | -0.205 |
| PSACRSLFGPVDH [N6S] | 0.793 |
| PSACRNLFGPHDH [V11H] | 1.65 |
| SSACRNLFGPVDH [P1S] | 1.22 |
| PSACMNLFGPVDH [R5M] | 0.407 |
| PSACRNLNGPVDH [F8N] | 0.0517 |
| PSACRNLFGPVTH [D12T] | 1.52 |
| PSAVRNLFGPVDH [C4V] | 1.59 |
| PSACRNLFNPVDH [G9N] | 0.684 |
| PSACRNGFGPVDH [L7G] | 0.36 |
| PMACRNLFGPVDH [S2M] | 0.425 |
| PSACRNLFGFVDH [P10F] | 1.24 |
| PWACRNLFGPVDH [S2W] | 0.537 |
| PSACRNIFGPVDH [L7I] | 0.585 |
| PSAMRNLFGPVDH [C4M] | 0.195 |

Block 3
Target: UBE2E2 UBC core domain (UniProt Q96LR5)
Sequence of UniProt Q96LR5 (whole entry, looked up): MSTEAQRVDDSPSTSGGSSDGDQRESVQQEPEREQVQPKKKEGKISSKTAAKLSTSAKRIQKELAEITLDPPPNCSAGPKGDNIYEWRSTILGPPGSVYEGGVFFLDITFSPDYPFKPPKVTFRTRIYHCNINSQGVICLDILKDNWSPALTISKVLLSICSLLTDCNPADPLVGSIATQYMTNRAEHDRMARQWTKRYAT
Method: yeast two-hybrid
Sample: yeast
Notes: mostly zero background
Relative to: not given
Reading: higher = stronger interaction
B1: UBOX5 RING domain (UniProt O94941); chain EQPGSILGPECASCKRVFSPYFKKEPVYQLPCGHLLCRPCLGEKQRSLPMTCTACQRPVASQDVLR
B2: TRIM62 RING domain (UniProt Q9BVG3); chain MACSLKDELLCSICLSIYQDPVSLGCEHYFCRRCITEHWVRQEAQGARDCPECRRTFAEPALAP
B3: RNF19A RING domain (UniProt Q9NV58); chain ISKQIGDFIECPLCLLRHSKDRFPDIMTCHHRSCVDCLRQYLRIEISESRVNISCPECTERFNPHDIR
B4: DTX2 RING domain (UniProt Q86UW9); chain EELKVPPDEDCIICMEKLSTASGYSDVTDSKAIGSLAVGHLTKCSHAFHLLCLLAMYCNGNKDGSLQCPSCKTIYGEKTGTQ
B5: MAP3K1 RING domain (UniProt Q13233); chain NSIKDEEEQMCPICLLGMLDEESLTVCEDGCRNKLHHHCMSIWAEECRRNREPLICPLCRSKWRSHDFYS
B6: RNF133 RING domain (UniProt Q8WVZ7); chain DEEINPNGDSCVICFERYKPNDIVRILTCKHFFHKNCIDPWILPHGTCPICKCDILKVLGIQ
B7: DZIP3 RING domain (UniProt Q86Y13); chain PDEEEEEEEPCVICHENLSPENLSVLPCAHKFHAQCIRPWLMQQGTCPTCRLHVLLPEEFP
| Sequence | lacZ reporter activity |
| --- | --- |
| KETIKKTTKPCPRCHVPVEKNGGCMHMKCPQPQCRLEWCWNCGCEWNRVCMG (PRKN RING domain (UniProt O60260)) | 0 |
| B1 (UBOX5 RING domain) | 0 |
| GSRLQEINDVCAICYHEFTTSARITPCNHYFHALCLRKWLYIQDTCPMCHQKVYIEDDIK (RNF139 RING domain (UniProt Q8WU17)) | 0 |
| B2 (TRIM62 RING domain) | 0 |
| B3 (RNF19A RING domain) | 0 |
| B4 (DTX2 RING domain) | 0 |
| KLRKLKEAMLCMVCCEEEINSTFCPCGHTVCCESCAAQLQSCPVCRSRVEHVQHVY (MYLIP RING domain (UniProt Q8WY64)) | 0 |
| NLSELTPYILCSICKGYLIDATTITECLHTFCKSCIVRHFYYSNRCPKCNIVVHQTQPLY (PCGF6 RING domain (UniProt Q9BYE7)) | 0 |
| PEDRESLKSACVVCLSSFKSCVFLECGHVCSCTECYRALPEPKKCPICRQAITRVIPLY (MUL1 RING domain (UniProt Q969V5)) | 0 |
| B5 (MAP3K1 RING domain) | 0 |
| B6 (RNF133 RING domain) | 0 |
| B7 (DZIP3 RING domain) | 0 |

Block 4
Target: Ras GTPase-activating protein-binding protein 1, full length (G3BP1, Homo sapiens, UniProt Q13283)
Sequence of UniProt Q13283 (whole entry, looked up): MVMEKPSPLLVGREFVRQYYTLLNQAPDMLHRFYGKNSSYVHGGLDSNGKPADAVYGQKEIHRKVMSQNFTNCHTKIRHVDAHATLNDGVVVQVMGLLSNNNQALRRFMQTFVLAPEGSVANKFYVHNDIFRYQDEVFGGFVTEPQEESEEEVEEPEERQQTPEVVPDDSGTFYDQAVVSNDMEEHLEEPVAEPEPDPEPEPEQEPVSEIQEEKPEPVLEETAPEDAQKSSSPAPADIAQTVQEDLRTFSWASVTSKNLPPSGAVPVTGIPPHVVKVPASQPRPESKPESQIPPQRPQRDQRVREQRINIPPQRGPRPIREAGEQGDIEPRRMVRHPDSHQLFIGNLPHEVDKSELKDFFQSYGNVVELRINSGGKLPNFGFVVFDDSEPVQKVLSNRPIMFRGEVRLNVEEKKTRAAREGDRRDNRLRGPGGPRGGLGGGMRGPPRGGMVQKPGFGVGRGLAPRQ
Method: RNA Bind-n-Seq
Molecule type: RNA
Sample: in vitro
Concentration: 200 nM
Notes: whole 134-nt RNA, ends assumed
Together with: 150 mM LiCl
Relative to: input library
Reading: higher = stronger binding
Each molecule: 7-deaza-guanosine replaces G
| Oligonucleotide | log2 enrichment |
| --- | --- |
| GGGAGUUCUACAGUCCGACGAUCGUCCUGUGCUACACAUCGUAUGUACCGAAUCGGGGAAAAAGGGGAGGGGUUUUUGGGGAAAGUAUUAUGUUACGCCGUUCGGAUCUGCACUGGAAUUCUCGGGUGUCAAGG | 0.178 |
| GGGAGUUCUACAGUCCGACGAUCCUGUGCUACACAUCGUAUGUACCGAAUCGGGAAAAAAAGGGUUUUUUUGGGAAAAAAAGGGAAAGUAUUAUGUUACGCCGUUCGGAUCUGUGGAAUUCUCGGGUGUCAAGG | -1.45 |
| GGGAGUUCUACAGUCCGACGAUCCCUGUGCUACACAUCGUAUGUACCGAAUCGGUUUUUUGGGGUUUUUUGGGGUUUUUUGGGGAAAGUAUUAUGUUACGCCGUUCGGAUCUGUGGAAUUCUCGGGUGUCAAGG | 0.717 |
| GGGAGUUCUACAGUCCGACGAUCUGUUUUAAGGUUGCCAACUUUGCAACAAUGGAAGAUGAAGAAGAGCUAGAAGAGCGUCCUCACAAGGACUGGGAUGAGAUCAUUCCAGAGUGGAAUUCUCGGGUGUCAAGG | -1.47 |
| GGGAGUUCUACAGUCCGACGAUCCAAGUCCUGUGCUACACAUCGUAUGUACCGAAUCGGGAGGGAGGGAAAAAAAGGGAAAGUAUUAUGUUACGCCGUUCGGAUCUGCACUUCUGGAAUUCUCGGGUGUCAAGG | -0.0454 |
| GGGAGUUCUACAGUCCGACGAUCAAGUCCUGUGCUACACAUCGUAUGUACCGAAUCGGGAAAAGGGAAAAGGGAAAAGGGAAAGUAUUAUGUUACGCCGUUCGGAUCUGCACUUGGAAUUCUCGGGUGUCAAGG | 0.341 |
| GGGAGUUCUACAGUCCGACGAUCACCACGCAGGUGGGCAUCUUUGGGAAGUGGGGCAAGGGGGGGAUAGGGAGGGGGGUAACACUUUGGGAACAGGUGGUCCCAGGUCGUUUCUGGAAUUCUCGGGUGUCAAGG | -0.0498 |
| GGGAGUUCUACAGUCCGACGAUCGUCCUGUGCUACACAUCGUAUGUACCGAAUCGGGGUUUUUGGGGUUUGGGGUUUGGGGAAAGUAUUAUGUUACGCCGUUCGGAUCUGCACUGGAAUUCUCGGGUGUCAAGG | -0.385 |
| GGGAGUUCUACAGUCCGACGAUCGUCCUGUGCUACACAUCGUAUGUACCGAAUCGGGGUGGGGAAAAAAAGGGGUUUGGGGAAAGUAUUAUGUUACGCCGUUCGGAUCUGCACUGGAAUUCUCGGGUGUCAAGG | -0.505 |
| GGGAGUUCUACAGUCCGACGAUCACCAUGCAGGUGGGCAUCUUUGGGAAGUGGGGCCAGGGGGGGAUAGGGAGGGGGGUAACACUUUGGGAACAGGUGGUCCCAGGUCGUUUCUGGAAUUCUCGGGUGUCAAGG | -0.178 |
| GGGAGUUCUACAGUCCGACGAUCCACAGACAACACGUACCCACACAGACACAGAGGGAAGGGGUUGGGAUGGGGACAGGGUGCACAGCAGGGCGGGGUAGGACCCCAGCCCCUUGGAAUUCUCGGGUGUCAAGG | -0.429 |
